Published values collected from several papers.
Each numbered part is a random draw from the data of one study; scales do not carry over between parts. Changes are numbered by the printed parent chain.

Study 1
Target: RNA binding protein fox-1 homolog 2, RRM domain, GST-SBP tag (RBFOX2, Homo sapiens, UniProt O43251-10, residues 100-194)
Technique: RNA Bind-n-Seq
Molecule type: RNA
Medium: in vitro
Tested at: 365 nM
Notes: natural RNA segment, single round, ends assumed
Baseline: no-protein control
Direction: higher = stronger binding
Measurement: RBNS enrichment (R)
Construct (chain): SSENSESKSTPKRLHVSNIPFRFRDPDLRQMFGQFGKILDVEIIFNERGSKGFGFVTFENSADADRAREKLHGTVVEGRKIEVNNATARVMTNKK
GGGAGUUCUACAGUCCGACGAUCUUAAAAAUAAGAUAUAUAUACAUAUAUAUAUCCAAUACAAUGAACUUUGAAGAUUUCUCAGAAAACUCAGAAGAAACGCCCUCUUUCAGGAUAAAUGUGGUGUUCCUAGCUGGAAUUCUCGGGUGCCAA: 0.58
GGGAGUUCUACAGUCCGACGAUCAGAACCCCGUGGGGUGGGGGAGAGGAUGUUUCUGUGGGCCCCUUCACCCCUCCUCUGUCUGCACCUCUAAACCCCAGAGCCCUGGAGGGGAGAGACUGGACUCUAGCCAGUGGAAUUCUCGGGUGCCAA: 0.863
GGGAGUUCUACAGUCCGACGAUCCAACCCAGUAUCUCAUGUGCCAAAGCCUUCCCCCAGGUAGACAGAGGGGACAUUGCCUGAGAGCUCUUCAGGAGAGAGAUAGAUGGUUCGUCGAGUGCCAUCUUAUUUAUUGGAAUUCUCGGGUGCCAA: 0.459
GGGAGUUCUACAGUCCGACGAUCGGUUAAACCCACAGCUUUUGUGUGUGGUUUGUUUUGUUGUGUUUUCUUUCUCUAUGUUCCAAAACCAUUCCAUUUCAAAGCACUUUUGGUCAGCUAGCUGGAGGCAGUGUUGGAAUUCUCGGGUGCCAA: 0.348
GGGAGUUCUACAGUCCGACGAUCAUGGCCUUUGUGGGAUUUAAUUCGGGGUUUGCUCAUCCCUUUACUUUAGGUGGAACUAUUUUCAGUGAAAUUUUCAAAAGGUAUUAACAGCACAGACAGUGUUUUUGACCUGGAAUUCUCGGGUGCCAA: 0.537
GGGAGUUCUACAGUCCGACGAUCUUUUUGGUGUGUGUGUGUGUGUAUUGUGCUUAGAAAGGUUGCAGAUUUCAUCUUCACCUACCAAGAGGCGGCCGCCUCCUUGGACAAGCCGCUCAUGGACCAUUAGACUUUGGAAUUCUCGGGUGCCAA: 0.4
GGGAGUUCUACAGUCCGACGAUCGGCUGCCUCGGGCAGGGCCUCCGGCCUCCGGCGCUCUCCCAGGAGGAGGUCAAGUUCCACACGCACGAGCCGCCUCAGCUGGACGGUGCAGUCAUGGCUGGCACAUGAGGUGGAAUUCUCGGGUGCCAA: 0.634
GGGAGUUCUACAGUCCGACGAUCUAAAACUAUGGAACCUCCUCUGGCCCCACCCCCUUAUCUUUCCCUACUGUUCAUUGUAAAGGGUCAGGCCCUAUCAGCAGCACUGAUGGGAAUAAAAGUAUUAUUGCUUUUGGAAUUCUCGGGUGCCAA: 0.402
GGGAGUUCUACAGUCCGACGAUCCACAGCACUCUAUCUCUCAGAGUCUGGAUAAGAAUUCCCAUGCUUGUUGGGACGAGACCAACUGUGCUGUUGCUAUGGGACCUGGAGGAGGGUUAGGCAUGGGUGACACCUGGAAUUCUCGGGUGCCAA: 3.57
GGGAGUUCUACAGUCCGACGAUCUGUGCCUUCUCUGGAUCCCUCCCUAGCCUGUGCCCCGAGCCGUCCAUAGAGAGUUUGUAGGUAUUUCCAGGGAUGGAGAAGAUCUAAGCAUUUGACUUCCCCAUCAGUACUGGAAUUCUCGGGUGCCAA: 3.46
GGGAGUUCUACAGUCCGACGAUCUUUUCAGACAGACUGUUUGCUUUCUGCUGAGAUAAGGAAUGCAUCACUCUGCCAGAGUAUGACUUUUUACAGAUUAUUAAAUAAAGCUGCAUAUGUCUCAUUGUUACCUGUGGAAUUCUCGGGUGCCAA: 0.314
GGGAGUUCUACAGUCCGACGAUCCCACCACCCCCGCAAAAACAAAAACAAAAACCAUCAUAAGAGCACACAUAGAUCGGAGUGAACAGAGAGCUUUGCCUCAAUCAUUUUUCUGGCUUUCCUCUGCAGCCAGGUGGAAUUCUCGGGUGCCAA: 0.895

Study 2
Target: Interferon regulatory factor 5, full length, phosphomimetic (IRF5, Homo sapiens, UniProt Q13568-2, residues 1-514, K96S/S451D/S453D/S456D/S462D)
Technique: protein-binding microarray
Molecule type: double-stranded DNA, one strand shown
Medium: in vitro
Tested at: 250 nM
Notes: 60-bp whole probe
With: salmon DNA 0.4 mg/ml
Baseline: random background probes
Direction: higher = stronger binding
Measurement: log fluorescence
All sequences stand within: GCCTAGCAC … GTCTTGATTCGCTTGACGCTGCTG
TTAGGTATCAGGTTTCGGTTAGTGCTA: 8.25 z-score
GACGATCTCACACTGGAGACGTGCTAG: -0.119 z-score
GACGGACTAGGGTATCGGGACGTGCTA: -0.0227 z-score
TTAGGTAGCGACTATCGGTTAGTGCTA: 6.6 z-score
TTAGGTATCGGACCGGGTTAGTGCTAG: 1.16 z-score
GACGGTTTCGACTATCTGGACGTGCTA: 6.63 z-score
GACGGTATCGGTATCAGGACGTGCTAG: 5.84 z-score
GACGGACTGCTTCTCCTGTCGTGCTAG: -0.158 z-score
TTAGAACTGGGGTATCGAGTAGTGCTA: 0.382 z-score
CTCCCTTTCAGTTTTCCTATGTGCTAG: 3.45 z-score
TTTCATTGCTGCCCTCAGAAAGTGCTA: 7.02 z-score
GTATGACTCTGCCTCTAACTGTGCTAG: -0.194 z-score
GACGGTTTCGACTTTCGGTACGTGCTA: 10.2 z-score
TTAGATCTCTGTATCGATTAGTGCTAG: 4.12 z-score
TTAGGTATCGACTTTCGGGTAGTGCTA: 8.4 z-score
GACGGTCTCGGAATGGGGACGTGCTAG: 0.024 z-score
TCACTTTTGCTAATTTTACTGTGCTAG: 1.68 z-score
TTAGGTTTTCTTCTCCTTTAGTGCTAG: 0.946 z-score
TTAGATCTCAGGTTCGATTAGTGCTAG: 0.347 z-score
ACATTTTTTTCATTATTGTTGTGCTAG: 1.96 z-score
TCAATTTTGTGTTTTCAACTGTGCTAG: 1.1 z-score
TTAGGTATCGACCATCGGTTAGTGCTA: 3.02 z-score
TTAGGACCGGGTATCGGTTAGTGCTAG: 3.85 z-score
GATGGTATCGACACTGGGGACGTGCTA: 2.13 z-score
TTAGAACTGAGTCTCGATTAGTGCTAG: 0.657 z-score

Study 3
Target: Sal-like protein 4, full length isoform B (SALL4, Homo sapiens, UniProt Q9UJQ4-2, residues 1-616)
Technique: universal PBM
Molecule type: double-stranded DNA, one strand shown
Medium: in vitro
Tested at: not given
Notes: 8-mer, flanks averaged, mean of replicates
Direction: higher = stronger binding
Measurement: E-score
ATACATTG: 0.261
CGGCCGAG: -0.169
CTAGACCA: 0.0279
TGGAGTAA: 0.176
CGGTCTTC: -0.274
ACTGCTGG: -0.197
GTAGTCCA: -0.0513
CTTGGGTA: 0.0324
CACTCGGC: -0.109
GCGGGAGC: -0.274
GTGGGATA: 0.0203
AATTCGTC: 0.0728
ATTTCTAC: 0.161
ACTGACTG: -0.0978
CTTCGCCA: -0.119
AAATATGC: 0.289
TTCGCGAA: 0.168
CGCCCGCC: -0.331
AATCCGGA: -0.0367
AGTACGCC: -0.168
GCCTAGAA: 0.0308
GAAGCGAA: -0.086

Study 4
Target: CCNF, cyclin fold, Cln2 fusion (human)
Technique: yeast growth competition, sequencing
Medium: yeast
Notes: strong parent motif
Baseline: not given
Direction: higher = stronger binding
Measurement: normalised enrichment score
Starting sequence: BRCA2 docking peptide (human); CKKRRALDFLSRL; partner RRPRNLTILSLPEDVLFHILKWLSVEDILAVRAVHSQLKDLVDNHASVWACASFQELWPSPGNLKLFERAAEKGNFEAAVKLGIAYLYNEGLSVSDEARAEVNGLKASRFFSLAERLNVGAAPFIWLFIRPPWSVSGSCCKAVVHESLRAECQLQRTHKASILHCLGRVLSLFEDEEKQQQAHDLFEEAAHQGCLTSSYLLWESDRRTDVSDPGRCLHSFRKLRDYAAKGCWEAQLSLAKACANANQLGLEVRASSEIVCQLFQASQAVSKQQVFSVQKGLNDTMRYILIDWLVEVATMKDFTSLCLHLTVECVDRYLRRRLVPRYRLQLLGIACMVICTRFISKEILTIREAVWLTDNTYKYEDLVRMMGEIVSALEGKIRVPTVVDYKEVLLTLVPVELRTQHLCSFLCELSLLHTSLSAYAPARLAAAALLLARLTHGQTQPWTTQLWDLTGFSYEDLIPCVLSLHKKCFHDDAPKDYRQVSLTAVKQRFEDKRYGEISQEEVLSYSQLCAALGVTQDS
R4A: 2.5
K2A: 2.36
D8A: 2.18
F9A: 2.45
R5A: 3.08
R5K: 1.21
S11A: 2.83
F9L: 2.04
R5A L7A: 2.21

Study 5
Target: Transcription factor SOX-2, HMG box (SOX2, Homo sapiens, UniProt P48431, residues 19-118)
UniProt P48431, sequence (19-118, looked up): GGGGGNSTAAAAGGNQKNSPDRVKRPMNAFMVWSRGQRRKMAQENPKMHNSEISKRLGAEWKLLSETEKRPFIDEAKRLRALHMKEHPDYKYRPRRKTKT
Technique: protein-binding microarray
Molecule type: double-stranded DNA, one strand shown
Medium: in vitro
Tested at: not given
Notes: k-mer, scored over probes, only values ≥0.25
Direction: higher = stronger binding
Measurement: E-score
ACAAAAG: 0.393
AATTGAT: 0.379
GAATTGC: 0.292
ATTATCG: 0.295
AAATTCA: 0.371
CACAATA: 0.426
AATTGTC: 0.456
AAACAAT: 0.475
AATGAAC: 0.254
AATAGGA: 0.257
CATATAA: 0.348
AATGGAT: 0.252
ACAATTC: 0.449
AATCATA: 0.274
AATAGAG: 0.305
ATAATAA: 0.401
TCAATAA: 0.363
AATACAG: 0.284
TAATTAA: 0.369
CAATTGC: 0.325
GATTGTA: 0.262
TGAACAA: 0.348
GTAACAA: 0.313
AACAAAA: 0.356
CTATTTA: 0.315

Excerpt of the above (study 5):
AAATTCA: 0.371
CACAATA: 0.426
AATTGTC: 0.456
AAACAAT: 0.475
AATGAAC: 0.254
AATAGGA: 0.257
CATATAA: 0.348
